Assay results gathered from unrelated publications.
Lines come from different studies, so protocols differ. ± marks the error that the study gave. ≈ marks a conversion by molar mass, not a printed value.

F[P-](F)(F)(F)(F)F.OC(Cn1cncn1)(Cn1cc(-[c-]2cccc2)nn1)c1ccc(F)cc1F.[Co+3].c1cc[cH-]c1 (racemic)
inhibition (Brugia pahangi; motility, Worminator; adult female; 50 µM, 0 d): 29%

O=[N+]([O-])c1cccc(S(=O)(=O)NC[C@@H](O)[C@@H]2CCc3cc(F)ccc3O2)c1
MIC (Rhizopus arrhizus; microbial growth): 14.4 µg/mL (≈ 36.2 µM)

COC1CN([C@H]2CC[C@H]([C@@]3(C)Oc4c(Cl)cc(C(=O)NCc5c(SC)cc(C)[nH]c5=O)c(C)c4O3)CC2)C1
log2 fold change (RNA-seq, measured: MARVELD2 mouse homolog; mouse, HT-1376 xenograft, whole blood; dose not given; reference: vehicle): 0.211

CC(=O)NCCN(CC(=O)NCCN(CC(=O)NCCN(CC(=O)NCCC(N)=O)C(=O)[C@@H](N)CCCCN)C(=O)[C@@H](N)Cc1ccccc1)C(=O)[C@@H](N)Cc1ccccc1
binding entropy term TΔS° (HIV-1 TAR RNA; concentration not given, 25 °C): -4.35 ± 0.335 kcal/mol

C=C1C[C@](OC)([C@H](O)C(=O)NC[C@@H]2C[C@@H](OC)C(C)(C)[C@@H](C[C@@H](COC)OC)O2)O[C@H](C)[C@@H]1C
IC50 (RAW264.7; cell viability, sulforhodamine B; 48 h, 37 °C, added: 100 µM H2O2): 0.0017 ± 0.0001 µM

CNCc1ccc2c(c1)C[C@H](CNC(=N)N)[C@H]2NC(=O)C(=O)Nc1ccc(Cl)c(F)c1
IC80 (Human immunodeficiency virus 1; viral infection, Env pseudovirus; TZM-bl, 6952.v1.c20 clade CD): 16.5 µM

CC[C@H](C)[C@H](NC(=O)[C@H](Cc1ccccc1)NC(=O)[C@@H](NC(=O)[C@@H](NC(=O)[C@H](CC(C)C)NC(=O)[C@H](CCCCN)NC(=O)[C@@H](N)CCCCN)[C@@H](C)CC)[C@@H](C)O)C(=O)N[C@@H](CC(C)C)C(=O)N[C@@H](CCCCN)C(=O)N[C@@H](CCCCN)C(=O)N[C@H](C(=O)N[C@@H](CCCNC(=N)N)C(=O)N[C@@H](CCC(=O)O)C(=O)N[C@@H](CCCCN)C(=O)N[C@@H](CCCCN)C(=O)N[C@@H](CCCCN)C(=O)N[C@@H](CCC(=O)O)C(=O)N[C@@H](CS)C(=O)N[C@@H](CC(C)C)C(=O)N[C@H](C(=O)O)C(C)C)[C@@H](C)O
unblocking rate constant (TTX-sensitive sodium channel; open-channel blocker, kinetic model fit; mouse hippocampal CA3 neurons; 200 µM intracellular, membrane potential -30 mV): 449 s⁻¹

CNCc1ccc2c(c1)N(C(=O)OCc1c(F)c(F)c(F)c(F)c1F)[C@H](CNC(=N)N)[C@H]2NC(=O)C(=O)Nc1ccc(Cl)c(F)c1
IC80 (Human immunodeficiency virus 1; viral infection, Env pseudovirus; TZM-bl, TRO.11 clade B): 1.53 µM

C[C@H](Nc1ncnc(N)c1C#N)c1c(-c2ccccc2)[nH]c2c(Cl)cccc2c1=O
IC50 (GCB DLBCL cell lines; cell proliferation, CellTiter-Glo; 72 h, median over cell lines): 4.79 µM

CCCOC(=O)N1c2cc(CNC)ccc2[C@H](NC(=O)C(=O)Nc2ccc(Cl)c(F)c2)[C@H]1CNC(=N)N
IC50 (Human immunodeficiency virus 1; viral infection, Env pseudovirus; TZM-bl, 6952.v1.c20 clade CD): 0.23 µM

CC(=O)NCCN(CC(=O)NCCN(CC(=O)NCCN(CC(=O)NCCC(N)=O)C(=O)C[C@@H](N)CCCNC(=N)N)C(=O)C[C@@H](N)Cc1ccccc1)C(=O)C[C@@H](N)Cc1ccccc1
binding entropy term TΔS° (HIV-1 TAR RNA; concentration not given, 25 °C): 2.01 ± 0.12 kcal/mol
